# Assay results pooled from the literature.
# Numbered parts are unrelated; each lists some results of a single study.

# Block 1
# Target: Replicase polyprotein 1ab, main protease (rep, Severe acute respiratory syndrome coronavirus 2, UniProt P0DTD1)
# Observed: enzyme activity
# Action: inhibitor
# Tested at: 20 µM
# Setting: hit confirmation
Structure (SMILES),inhibition
CCOC(=O)C1=C(N)Oc2ccc(Br)cc2C1C(C#N)C(=O)OCC (stereo not shown),20.2%
NC(Cc1ccc(O)c(O)c1)C(=O)O (stereo not shown),56.6%
CN1Cc2ccccc2[C@@H]2c3cccc4[nH]cc(c34)C[C@H]21,61%
CC1=NN(c2ccc(C)c(C)c2)C(=O)/C1=N/Nc1cccc(-c2cccc(C(=O)O)c2)c1O,2%

# Block 2
# Target: Sal-like protein 4, full length isoform A (SALL4, Homo sapiens, UniProt Q9UJQ4, residues 1-1053)
# UniProt Q9UJQ4, sequence (whole entry, looked up): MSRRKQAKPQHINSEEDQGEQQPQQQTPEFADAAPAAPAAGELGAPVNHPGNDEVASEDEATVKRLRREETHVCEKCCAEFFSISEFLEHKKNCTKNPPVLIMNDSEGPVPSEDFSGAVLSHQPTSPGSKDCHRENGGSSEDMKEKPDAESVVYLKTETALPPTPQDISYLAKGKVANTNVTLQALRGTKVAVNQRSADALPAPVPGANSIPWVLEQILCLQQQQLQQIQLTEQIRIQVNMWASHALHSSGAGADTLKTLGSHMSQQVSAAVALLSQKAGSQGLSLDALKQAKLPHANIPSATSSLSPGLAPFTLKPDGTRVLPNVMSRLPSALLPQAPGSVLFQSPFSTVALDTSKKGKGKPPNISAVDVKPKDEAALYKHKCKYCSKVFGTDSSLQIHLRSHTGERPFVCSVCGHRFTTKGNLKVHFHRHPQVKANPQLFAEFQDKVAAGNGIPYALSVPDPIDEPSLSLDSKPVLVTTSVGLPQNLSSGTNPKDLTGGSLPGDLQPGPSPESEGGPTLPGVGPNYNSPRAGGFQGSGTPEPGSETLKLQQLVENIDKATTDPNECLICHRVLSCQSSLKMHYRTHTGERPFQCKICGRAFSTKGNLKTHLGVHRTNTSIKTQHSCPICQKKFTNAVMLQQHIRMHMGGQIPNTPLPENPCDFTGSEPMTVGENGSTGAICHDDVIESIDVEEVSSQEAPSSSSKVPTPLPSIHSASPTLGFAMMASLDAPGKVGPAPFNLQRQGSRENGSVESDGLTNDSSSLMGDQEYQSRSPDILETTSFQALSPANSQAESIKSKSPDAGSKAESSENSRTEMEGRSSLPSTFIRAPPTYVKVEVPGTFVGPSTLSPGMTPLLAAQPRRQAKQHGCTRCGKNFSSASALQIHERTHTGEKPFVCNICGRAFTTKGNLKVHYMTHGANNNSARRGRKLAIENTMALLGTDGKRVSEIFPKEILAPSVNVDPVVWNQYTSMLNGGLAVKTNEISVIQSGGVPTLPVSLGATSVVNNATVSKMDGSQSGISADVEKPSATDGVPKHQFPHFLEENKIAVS
# Technique: universal PBM
# Form: double-stranded DNA, one strand shown
# Matrix: in vitro
# Tested at: 600 nM
# Setting: 8-mer, flanks averaged, mean of replicates
# Reading: higher = stronger binding
Sequence,E-score
CGTGTACC,-0.221
CCAACCAA,-0.159
CCAGAGTA,-0.119
AGGAGCCC,-0.285
CGTCAACA,-0.135
CTCAAGAG,-0.149
AACTCATC,0.0165
CGTGCTTC,-0.205

# Block 3
# Target: Replicase polyprotein 1ab, polymerase (rep, Severe acute respiratory syndrome coronavirus 2, UniProt P0DTD1)
# Observed: enzyme activity
# Action: inhibitor
# Tested at: 20 µM
SMILES,inhibition [%]
CC1=C(C(=O)O)N2C(=O)[C@@H](NC(=O)[C@H](N)c3ccc(O)cc3)[C@H]2SC1,-0.74
CNC[C@@H]1CC[C@@H](N)[C@@H](O[C@H]2[C@H](O)[C@@H](O[C@H]3OC[C@](C)(O)[C@H](NC)[C@H]3O)[C@H](N)C[C@@H]2N)O1,-2.74
CCCCCCCCCCCCCCCC(=O)O[C@@H]1[C@@H](O)[C@@H](O)[C@@H]([C@H](NC(=O)[C@@H]2C[C@@H](CCC)CN2C)[C@H](C)Cl)O[C@@H]1SC,-7.88
Cc1nc2c(c(=O)[nH]1)CSCC2,2.61
O=C(O)[C@H]1O[C@@H](Oc2cc3oc(-c4ccccc4)cc(=O)c3c(O)c2O)[C@H](O)[C@@H](O)[C@@H]1O,25.6
CC(=O)c1ccc2c(c1)[C@H](NC(=O)c1ccc(F)c(Cl)c1)[C@H](O)C(C)(C)O2,1.19
Nc1ncnc2c1ncn2CCOCP(=O)(O)O,-1.05
Cc1cc(C#N)cc(C)c1Oc1nc(Nc2ccc(C#N)cc2)nc(N)c1Br,-1.58
Clc1cccc(SC2CCNCC2)n1,9.08
O=C(O)c1cc(C(=O)O)c(C(=O)N(Cc2cccc(Oc3ccccc3)c2)[C@H]2CCCc3ccccc32)cc1C(=O)O,1.1
CCC(=O)O[C@@H](O[P@](=O)(CCCCc1ccccc1)CC(=O)N1C[C@H](C2CCCCC2)C[C@H]1C(=O)O)C(C)C,9.35
CN1CCCN=C1/C=C/c1cccs1,4.06
OC[C@@H](O)CN1CCN(c2ccccc2)CC1,-2.11
CO/N=C(\C(=O)N[C@@H]1C(=O)N2C(C(=O)O)=C(C)CS[C@H]12)c1csc(N)n1,-4.76
O=C(c1ccc(F)cc1)C1CCN(CCn2c(=O)[nH]c3ccccc3c2=O)CC1,-4.82
CCN1CCC[C@H]1CNC(=O)c1c(O)c(Cl)cc(Cl)c1OC,-0.41
CCn1cc(C(=O)O)c(=O)c2cc(F)c(N3CCNC(C)C3)c(F)c21 (stereo not shown),13.6
OC[C@H]1O[C@@H](n2cnc3c(NC4CCCC4)nc(Cl)nc32)[C@H](O)[C@@H]1O,-2.3
CC(C)Oc1ccc2c(=O)c3cc(C(=O)O)ccc3oc2c1,2.43
COc1ccc2nc(NC(=O)Nc3ccccc3)sc2c1,-7.23
COc1ccc(COc2cc3oc(=O)c4cc(C(C)O)ccc4c3cc2OC)cc1 (stereo not shown),2.34
NCCC(O)(P(=O)(O)O)P(=O)(O)O,-3.92
CCc1ccc(Cc2ccc3c(c2)[C@]2(OC3)O[C@H](CO)[C@@H](O)[C@H](O)[C@H]2O)cc1,4.96
O=c1cc(-c2cccc3c2Sc2ccccc2S3)oc(N2CCOCC2)c1,3.51
CCCCCCCCCCCCCCCC(=O)OC[C@H](COP(=O)([O-])OCC[N+](C)(C)C)OC(=O)CCCCCCCCCCCCCCC,-5.42

# Block 4
# Target: Histone acetyltransferase KAT6A, winged helix 1, GST fusion (KAT6A, Homo sapiens, UniProt Q92794, residues 1-85)
# Technique: protein binding microarray
# Form: double-stranded DNA, one strand shown
# Matrix: in vitro
# Tested at: not given
# Setting: 8-mer, flanks averaged, mean of 2 arrays, mostly near background
# Reference: not given
# Reading: higher = stronger binding
# Target sequence (chain): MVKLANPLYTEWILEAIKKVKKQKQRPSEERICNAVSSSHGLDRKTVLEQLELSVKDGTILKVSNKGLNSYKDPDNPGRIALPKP
Sequence,E-score
CTCTCGTC,-0.127
GCCAGGTA,-0.027
AAGTACAC,-0.17
TGAACACA,-0.102
TTCCGGAA,-0.025
GCAGGTAC,0.0421
CGCATTCC,0.198
CATCATCA,-0.165

# Block 5
# Cell line: HEK-293T
# Observed: pseudovirus infection
# Technique: FDA-approved drug library screen
# Organism: VSV pseudotyped with SARS-CoV-2 spike
# Tested at: 10 µM
# Time: 16 h
# Reference: vehicle-treated
SMILES,GFP-positive cells [%]
CC(C)(C#N)c1cc(Cn2cncn2)cc(C(C)(C)C#N)c1,106
Cc1cnc(NC(=O)C2=C(O)c3ccccc3S(=O)(=O)N2C)s1,79.9
CC(C)(C)NCC(O)COc1cccc2c1CC(O)C(O)C2 (stereo not shown),74.6
NS(=O)(=O)c1cc(C2(O)NC(=O)c3ccccc32)ccc1Cl (stereo not shown),73.2
O=C1O[C@H](CO)[C@@H](O)[C@H](O)[C@H]1O,83.5
C[N+]1(C)[C@@H]2CC[C@H]1C[C@@H](OC(=O)C(O)c1ccccc1)C2 (stereo partly shown),112
NS(=O)(=O)c1cc2c(cc1Cl)N=CNS2(=O)=O,105

# For quick reference, copied from above (block 5):
SMILES,GFP-positive cells [%]
O=C1O[C@H](CO)[C@@H](O)[C@H](O)[C@H]1O,83.5
NS(=O)(=O)c1cc2c(cc1Cl)N=CNS2(=O)=O,105
NS(=O)(=O)c1cc(C2(O)NC(=O)c3ccccc32)ccc1Cl (stereo not shown),73.2
CC(C)(C#N)c1cc(Cn2cncn2)cc(C(C)(C)C#N)c1,106
Cc1cnc(NC(=O)C2=C(O)c3ccccc3S(=O)(=O)N2C)s1,79.9
C[N+]1(C)[C@@H]2CC[C@H]1C[C@@H](OC(=O)C(O)c1ccccc1)C2 (stereo partly shown),112
CC(C)(C)NCC(O)COc1cccc2c1CC(O)C(O)C2 (stereo not shown),74.6
